# Measurements from different studies.
# Lines come from different studies, so protocols differ. Numbers after ± are the reported error.
# CXCR4: C-X-C chemokine receptor type 4 (CXCR4, Homo sapiens, UniProt P61073)
# GPR17: Uracil nucleotide/cysteinyl leukotriene receptor (GPR17, Homo sapiens, UniProt Q13304)
# SLC10A1: Hepatic sodium/bile acid cotransporter (SLC10A1, Homo sapiens, UniProt Q14973)
# Protein farnesyltransferase: Protein farnesyltransferase (Homo sapiens, UniProt P49354+P49356)
# UGT1A9: UDP-glucuronosyltransferase 1A9 (UGT1A9, Homo sapiens, UniProt O60656)
# T1: RNA aptamer optimized Class V; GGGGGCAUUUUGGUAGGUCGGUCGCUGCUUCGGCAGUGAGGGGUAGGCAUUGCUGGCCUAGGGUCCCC
Substance,target,assay,test system,conditions,scale,endpoint,result
CN(Cc1ccc(CN(C)Cc2ccccn2)cc1)Cc1ccccn1,CXCR4,"binding, competition binding",MDA-MB-231,"semi-quantitative screen, added: biotinylated TN14003",,lowest effective concentration,> 1000 nM
O=C1NC(=O)C(c2ccccc2)(c2ccccc2)N1,"Monocarboxylate transporter 8 (SLC16A2, Rattus norvegicus, UniProt Q8K1P8)","substrate, Xenopus oocytes",,"9.09 µM, 20 °C",reference: water-injected oocytes,uptake,1.5 fold
CNc1nc(Cl)cc2c1ncn2[C@@H]1O[C@H](COP(=O)(O)OP(=O)(O)OP(=O)(O)O)[C@@H](O)[C@H]1O.N.N.N.N,GPR17,frontal affinity chromatography-MS,immobilized on IAM column,"1 µM, compound mixture",,breakthrough time,11.1 min
CCN(CC)CCNC(=O)c1ccc(N)cc1,SLC10A1,inhibitor,HEK293 expressing NTCP,"100 µM, 5 min, added: taurocholate 10 µM",reference: no compound,taurocholate uptake,84.8 ± 6.7%
CC[C@H](C)[C@H](NC(=O)[C@H](CCCCN)NC(=O)[C@H](CCC(N)=O)NC(=O)[C@H](CCCCN)NC(=O)[C@H](CC(C)C)NC(=O)[C@H](C)NC(=O)[C@H](C)NC(=O)[C@@H](NC(=O)[C@H](CCC(N)=O)NC(=O)[C@H](CCCCN)NC(=O)[C@H](CCCCN)NC(=O)[C@H](CC(C)C)NC(=O)[C@H](C)NC(=O)[C@H](C)NC(=O)[C@@H](NC(=O)[C@H](CCC(N)=O)NC(=O)[C@H](CCC(N)=O)NC(=O)[C@H](CCCCN)NC(=O)[C@H](CC(C)C)NC(=O)[C@H](C)NC(=O)[C@H](Cc1ccc(O)cc1)NC(=O)[C@H](C)NC(=O)[C@H](CCCCN)NC(=O)[C@H](CCC(N)=O)NC(=O)[C@H](CCCCN)NC(=O)[C@H](CC(C)C)NC(=O)[C@H](C)NC(=O)[C@H](C)NC(=O)[C@H](C)NC(=O)[C@H](CCCCN)NC(C)=O)[C@@H](C)CC)C(C)C)C(=O)N[C@@H](C)C(=O)N[C@@H](C)C(=O)N[C@@H](CC(C)C)C(=O)N[C@@H](CCCCN)C(N)=O,"Fos-related antigen 1 (FOSL1, Homo sapiens, UniProt P15407)","heterodimer unfolding, CD thermal denaturation",,"150 µM total peptide, pH 7",,Tm,64 °C
CSFL,Protein farnesyltransferase,"enzyme activity, substrate, fluorimetric",peptide,"3 µM, 30 min, added: 9 µM farnesyl diphosphate",reference: dansyl-GCVLS (set to 1.0),relative fluorescence increase,0
O=c1ccn([C@@H]2O[C@H](COP(=O)([O-])OP(=O)([O-])[O-])[C@@H](O)[C@H]2O)c(=O)[nH]1.[Na+].[Na+].[Na+],"Uracil nucleotide/cysteinyl leukotriene receptor, short isoform (GPR17, Homo sapiens, UniProt Q13304, R283I)",frontal affinity chromatography-MS,mutated receptor IAM column,concentration not given,reference: wild type column,breakthrough time change,-20.1%
COc1cc2c(NC3CCN(CCCC(=O)NCCCCCCCCCC(=O)N[C@H](C(=O)N4C[C@H](O)C[C@H]4C(=O)NCc4ccc(-c5scnc5C)cc4)C(C)(C)C)CC3)nc(N3CCC(F)(F)CC3)nc2cc1OCCCN1CCCC1,"EHMT2 (Homo sapiens, UniProt Q96KQ7)","degrader, western blot",,"0.3 µM, 24 h",reference: DMSO,degradation,67 ± 22%
COc1cc(O)c2c(=O)c(-c3ccc(O)cc3)coc2c1,UGT1A9,substrate,,"pH 7.4, 37 °C",,Vmax,230 pmol/mg/min
CLIL,Protein farnesyltransferase,"enzyme activity, substrate, fluorimetric",peptide,"3 µM, 30 min, added: 9 µM farnesyl diphosphate",reference: dansyl-GCVLS (set to 1.0),relative fluorescence increase,< 0.05
CS(=O)(=O)c1ccc(-c2nn(-c3ccc(C#N)cc3)cc2C(=O)Nc2cccc(F)c2)cc1,"ALDH1A2 (Homo sapiens, UniProt O94788)",differential scanning fluorimetry,,"200 µM, added: NAD 1 mM",,ΔTm,8.6 ± 0.07 °C
c1cc(CN2CCCC2)nc(CN2CCCC2)c1,CXCR4,"binding, competition binding",MDA-MB-231,"semi-quantitative screen, added: biotinylated TN14003",,lowest effective concentration,1 nM
CC[C@H](C)[C@H](NC(=O)[C@H](Cc1c[nH]cn1)NC(=O)[C@H](CC(=O)O)NC(=O)[C@H](C)NC(=O)[C@H](C)NC(=O)[C@@H](NC(=O)[C@@H](NC(=O)[C@H](CC(C)C)NC(=O)[C@H](CCCNC(=N)N)NC(=O)[C@H](Cc1c[nH]cn1)NC(=O)[C@@H](NC(=O)[C@H](CCCNC(=N)N)NC(=O)[C@@H]1CCCN1C(=O)[C@@H](NC(=O)[C@H](CCC(N)=O)NC(=O)CN)C(C)C)[C@@H](C)O)[C@@H](C)CC)[C@@H](C)O)C(=O)N[C@@H](CS)C(=O)N[C@@H](CCC(N)=O)C(=O)N[C@H](C(=O)N[C@H](C(=O)N[C@H](C(=O)N[C@@H](CCC(N)=O)C(=O)N[C@@H](CC(=O)O)C(=O)N[C@@H](Cc1ccccc1)C(=O)N[C@@H](C)C(=O)N[C@@H](CCCNC(=N)N)C(=O)O)[C@@H](C)O)[C@@H](C)CC)[C@@H](C)CC,"NR1D1 (Homo sapiens, UniProt P20393)","NCoR peptide binding, competitor, TR-FRET",,"1 h, added: labelled NCoR 2040-2065 peptide",reference: mutant over wild-type peptide,IC50 fold change,2.7
CTAL,Protein farnesyltransferase,"enzyme activity, substrate, fluorimetric",peptide,"3 µM, 30 min, added: 9 µM farnesyl diphosphate",reference: dansyl-GCVLS (set to 1.0),relative fluorescence increase,0
C[C@H]1O[C@H](O[C@H]2[C@H](O)[C@@H](O)[C@@H](O[C@H]3[C@H](O)[C@@H](O)C(O)O[C@@H]3CO)O[C@@H]2CO)[C@H](O)[C@@H](O)[C@@H]1N[C@H]1C=C(CO)[C@@H](O)[C@H](O)[C@H]1O (stereo partly drawn),SLC10A1,inhibitor,HEK293 expressing NTCP,"100 µM, 5 min, added: taurocholate 10 µM",reference: no compound,taurocholate uptake,99.7 ± 4.9%
N.N.N.N.O=P(O)(O)OP(=O)(O)OP(=O)(O)OC[C@H]1O[C@@H](n2cnc3c(NC4CCCC4)ncnc32)[C@H](O)[C@@H]1O,GPR17,frontal affinity chromatography-MS,immobilized on IAM column,"1 µM, compound mixture",,breakthrough time,12.2 min
CC1(C)[C@H](C(=O)O[C@H](C#N)c2cccc(Oc3ccccc3)c2)[C@@H]1C=C(Br)Br,"Voltage-gated sodium channel (Blattella germanica, UniProt O01306)","tail current modification, two-electrode voltage clamp","Xenopus oocytes, coexpressed tipE","10 min, pH 7.5, 20-22 °C, 100 depolarizing pulses -120 to -10 mV",,EC20,20 nM
CCVL,Protein farnesyltransferase,"enzyme activity, substrate, fluorimetric",peptide,"3 µM, 30 min, added: 9 µM farnesyl diphosphate",reference: dansyl-GCVLS (set to 1.0),relative fluorescence increase,0.11
C=CC(C)=CCC=C(C)C,Chilo suppressalis CSP2,"binding, competitive ligand, fluorescence competitive binding",,"highest concentration tested, pH 7.4, protein 2 µM, added: 1-NPN 2 µM",reference: no ligand,remaining 1-NPN fluorescence,85.4 ± 1.71%
CCSL,Protein farnesyltransferase,"enzyme activity, substrate, fluorimetric",peptide,"3 µM, 30 min, added: 9 µM farnesyl diphosphate",reference: dansyl-GCVLS (set to 1.0),relative fluorescence increase,0
Nc1ncnc2c1ncn2[C@@H]1O[C@H](C(=O)N2CCN(CC(=O)Nc3cccc4c3CNC4=O)CC2)[C@@H](O)[C@H]1O,"PARP1 (Homo sapiens, UniProt P09874)",hydrogen-deuterium exchange MS,,"concentration not given, contact point peptides, added: single-strand break DNA",reference: with over without compound,deuterium exchange delay,10 fold
O=c1c(O)c(-c2ccc(O)cc2)oc2ccccc12,UGT1A9,substrate,,"pH 7.4, 37 °C",,Vmax,1800 pmol/mg/min
CCCCC/C=C\C/C=C\CCCCCCCC(=O)O,Chilo suppressalis CSP2,"binding, competitive fluorescence displacement",,"30 µM, pH 7.4",,fluorescence intensity,48 ± 1.39%
O=[N+]([O-])c1ccc(Oc2ccccc2)c(O)c1,"Enoyl-[acyl-carrier-protein] reductase [NADPH] FabI (Staphylococcus aureus, UniProt Q6GI75)","enzyme activity, inhibitor, progress curve kinetics",,,,dissociation rate constant,9.03 ± 6.58 h⁻¹
CC/C=C\CCOC(C)=O,"chemosensory protein 1 (Chilo suppressalis, UniProt V9PY22)","binding, competitive ligand, fluorescence competitive binding",,"highest concentration tested, pH 7.4, protein 2 µM, added: 1-NPN 2 µM",reference: no ligand,remaining 1-NPN fluorescence,85.8 ± 2.19%
Cc1cc2nc3c(=O)[nH]c(=O)nc-3n(C[C@H](O)[C@H](O)[C@H](O)CO)c2cc1C,"Riboflavin-binding protein (Gallus gallus, UniProt P02752)","riboflavin release, fluorescence",,"native holoprotein, added: guanidine hydrochloride 6 M",,koff,0.0131 ± 0.0001 s⁻¹
O=C(CCn1c2ccccc2c2ccccc21)N(c1ccc(F)cc1)c1ccc(F)cc1,"Proteasome subunit alpha type-2/Proteasome subunit alpha type-6, 20S proteasome (Homo sapiens, UniProt P25787+P60900)","proteolysis, activator, fluorogenic peptide",purified 20S proteasome,"up to 30 µM, added: Suc-LLVY-AMC, Z-LLE-AMC, Boc-LRR-AMC",reference: vehicle,maximum fold increase,5.8
CCOc1ccc2ccccc2c1C(=O)N[C@@H]1C(=O)N2[C@@H]1SC(C)(C)[C@@H]2C(=O)O,SLC10A1,inhibitor,HEK293 expressing NTCP,"100 µM, 5 min, added: taurocholate 10 µM",reference: no compound,taurocholate uptake,96.7 ± 5.6%
Nc1nc2c(ncn2[C@@H]2O[C@H](COP(=O)(O)OP(=O)(O)OP(=O)(O)O)[C@@H](O)[C@H]2O)c(=O)[nH]1,"T1, RNA aptamer optimized Class V",ultrafiltration,,"apparent, added: GTP",,Kd,17 nM
CCCN(CCC)CCc1cccc2c1CC(=O)N2,SLC10A1,inhibitor,HEK293 expressing NTCP,"100 µM, 5 min, added: taurocholate 10 µM",reference: no compound,taurocholate uptake,133 ± 4%
N=C(N)NCC(=O)NCC1(Cc2ccccc2)CCN(Cc2ccccc2)CC1,"Neuropeptide FF receptor 2 (Homo sapiens, UniProt Q9Y5X5)","receptor activation, agonist",,,,highest concentration inactive,≤ 1 µM
Cc1ncc([N+](=O)[O-])n1CCO,SLC10A1,inhibitor,HEK293 expressing NTCP,"100 µM, 5 min, added: taurocholate 10 µM",reference: no compound,taurocholate uptake,84.3 ± 2.7%
Nc1c(N=Nc2ccc(S(=O)(=O)CCOS(=O)(=O)[O-])cc2)c(S(=O)(=O)[O-])cc2cc(S(=O)(=O)[O-])c(N=Nc3ccc(S(=O)(=O)CCOS(=O)(=O)[O-])cc3)c(O)c12.[Na+].[Na+].[Na+].[Na+],ancestral DyP peroxidase wild type,"peroxidase activity, substrate",,"pH 4.0, 25 °C, pH 4.5 for Mn2+",,Hill coefficient,~3

# Repeated from above:
Substance,target,assay,test system,conditions,scale,endpoint,result
C[C@H]1O[C@H](O[C@H]2[C@H](O)[C@@H](O)[C@@H](O[C@H]3[C@H](O)[C@@H](O)C(O)O[C@@H]3CO)O[C@@H]2CO)[C@H](O)[C@@H](O)[C@@H]1N[C@H]1C=C(CO)[C@@H](O)[C@H](O)[C@H]1O (stereo partly drawn),SLC10A1,inhibitor,HEK293 expressing NTCP,"100 µM, 5 min, added: taurocholate 10 µM",reference: no compound,taurocholate uptake,99.7 ± 4.9%
N.N.N.N.O=P(O)(O)OP(=O)(O)OP(=O)(O)OC[C@H]1O[C@@H](n2cnc3c(NC4CCCC4)ncnc32)[C@H](O)[C@@H]1O,GPR17,frontal affinity chromatography-MS,immobilized on IAM column,"1 µM, compound mixture",,breakthrough time,12.2 min
CC1(C)[C@H](C(=O)O[C@H](C#N)c2cccc(Oc3ccccc3)c2)[C@@H]1C=C(Br)Br,"Voltage-gated sodium channel (Blattella germanica, UniProt O01306)","tail current modification, two-electrode voltage clamp","Xenopus oocytes, coexpressed tipE","10 min, pH 7.5, 20-22 °C, 100 depolarizing pulses -120 to -10 mV",,EC20,20 nM
CCVL,Protein farnesyltransferase,"enzyme activity, substrate, fluorimetric",peptide,"3 µM, 30 min, added: 9 µM farnesyl diphosphate",reference: dansyl-GCVLS (set to 1.0),relative fluorescence increase,0.11
